# Published values gathered from unrelated publications.
# Each numbered part is a random draw from the data of one study; scales do not carry over between parts.

# Block 1 — technique: protein-binding microarray; molecule type: double-stranded DNA, one strand shown; matrix: in vitro; concentration: not given; reading: higher = stronger binding
# Target: TATA-box-binding protein 1 (TBP1, Arabidopsis thaliana, UniProt P28147, residues 1-200, full length assumed)
# Setting: k-mer, scored over probes, only values ≥0.25
# Target sequence (chain): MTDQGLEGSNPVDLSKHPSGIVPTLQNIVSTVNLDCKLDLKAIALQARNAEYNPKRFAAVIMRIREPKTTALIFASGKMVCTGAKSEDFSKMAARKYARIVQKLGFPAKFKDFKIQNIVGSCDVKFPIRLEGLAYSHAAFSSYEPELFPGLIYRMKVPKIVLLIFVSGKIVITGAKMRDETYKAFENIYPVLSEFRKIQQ
Sequence,E-score
ACCTATA,0.309
AATAAAC,0.367
ATTTCTA,0.287
TAATTAA,0.385
ATGAATA,0.28
ATCTTAA,0.355
ATATCGC,0.282
GTTAAAA,0.338
ATTTAAA,0.463
AGATATA,0.429
ATGTTAA,0.321
AATATGT,0.323
AACTTTA,0.259
CCTTTTA,0.395
AGTTTAA,0.337

# Block 2 — technique: protein binding microarray; molecule type: double-stranded DNA, one strand shown; matrix: in vitro; concentration: not given; relative to: not given; reading: higher = stronger binding
# Target: Histone acetyltransferase KAT6A, both winged helices, GST fusion (KAT6A, Homo sapiens, UniProt Q92794, residues 1-181)
# Setting: 8-mer, flanks averaged, mean of 2 arrays, mostly near background
# Construct (chain): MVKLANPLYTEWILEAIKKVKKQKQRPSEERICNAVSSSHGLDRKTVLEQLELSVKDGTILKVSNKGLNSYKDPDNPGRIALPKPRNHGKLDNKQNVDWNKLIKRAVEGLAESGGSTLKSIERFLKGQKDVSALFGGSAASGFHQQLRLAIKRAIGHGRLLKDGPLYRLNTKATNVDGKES
Sequence,E-score
ATTTAGTA,-0.0149
AGGGTCGG,-0.00492
AACGCGTC,0.322
CATCAGAC,0.0279
GAGGCGAA,-0.0103
GGCGAGAC,0.041
GATTGGCA,-0.222
TGCTAAAA,-0.069
AGAGATCG,0.00395
ATAGAAGG,-0.00972
ACTGCAGA,-0.201
AGTTGATG,-0.189
AAACTCCC,0.0887
AACTCTCT,-0.227
AATCATAG,-0.141
CCTCTCAC,-0.123
CTTTAAGA,0.0172
GAGACTAA,-0.0758
AAATCCAT,-0.213

# Block 3 — technique: aptamer microarray, sandwich; molecule type: DNA with 2'F-ANA; matrix: in vitro; concentration: 200 nM; added: Cy3 exosite-II aptamer, 400 nM; reading: higher = stronger binding; sequence: GGTTGGTGTGGTTGG
# Target: Prothrombin, mature alpha-thrombin (F2, Homo sapiens, UniProt P00734)
# Setting: whole 15-mer aptamer, many near background
Modification,mean fluorescence intensity [a.u.]
2'F-ANA at 2 3 5 7 9 10 11 12,65.5
2'F-ANA at 1 2 4 5 6 9 10 11 12 14 15,51.8
2'F-ANA at 4 5 6 7 12 13 14,44.4
2'F-ANA at 2 6 8 9 10 12 13 14,80.8
2'F-ANA at 1 4 5 6 7 9 11 14 15,50.4
2'F-ANA at 2 4 6 8 9 13 14 15,72.2
2'F-ANA at 1 2 3 8 9 12 14 15,102
2'F-ANA at 1 3 4 7 11 14,78.7
2'F-ANA at 1 3 4 5 7 9 10 12 13,52.2
2'F-ANA at 1 6 7 10 11 12 13 14,44.4
2'F-ANA at 1 3 5 7 8 9 10 12 13 14 15,51.7
2'F-ANA at 1 3 4 6 9 12 15,325
2'F-ANA at 3 5 6 8 10 11 14,51.5
2'F-ANA at 2 3 4 9 11 14 15,263
2'F-ANA at 2 3 6 7 8 9 10 11 13 14 15,224
2'F-ANA at 5 7 8 9 10 11 12 14 15,89.8
2'F-ANA at 1 2 4 5 9 10 11 14,141

# Block 4 — technique: protein-binding microarray; molecule type: double-stranded DNA, one strand shown; matrix: in vitro; concentration: 940 nM top; setting: 60-bp whole probe; added: salmon DNA 0.4 mg/ml; relative to: random background probes; reading: higher = stronger binding; shared flanks, not repeated: GCCTAGCAC … GTCTTGATTCGCTTGACGCTGCTG
# Target: Interferon regulatory factor 5, full length, phosphomimetic (IRF5, Homo sapiens, UniProt Q13568-2, residues 1-514, S451D/S453D/S456D/S462D)
Sequence,fitted relative affinity [z-score]
GACGGACAGGGGTTTCGGGACGTGCTA,1.98
TTGGATATCGGGTTTCGATTAGTGCTA,5.35
GTCATTATCCTTGTCCCTCCGTGCTAG,0.843
GACGGTACCGACACTGGGGACGTGCTA,-0.205
TTAGCACTGCTTTTCCTTTAGTGCTAG,-0.056
TCCAGCCTGTTTCCAGCAGGGTGCTAG,-0.176
TACGGTTTCGACTTTCGGGACGTGCTA,6.96
TTAGGTTTCCTCTCCCTTTAGTGCTAG,1.26
CCTGAAATCTCTTTCCTTACGTGCTAG,0.637
TCAACCCTCCCTCTGTAAGTGTGCTAG,0.34
GACGGACTGGGGGCTGGGGACGTGCTA,0.639
GACGGACTGGGTCTCGAGACGTGCTAG,-0.151
GACGGACTGGACTCTCGGGACGTGCTA,-0.00481
GGCTCTCTGGACTGTGTGTTTGTGCTA,0.217
GACAATCTCAGACTGGAGACGTGCTAG,-0.326
GTCGGTTTCCTTATCCTGACGTGCTAG,3.3
GATTTCTTCCCTGTGAAAACGTGCTAG,0.741
TTCCTTCTGCCTGTCCATTCGTGCTAG,1.38
GCCGGTTTCCTTATCCTGACGTGCTAG,1.83
TTAGGTTTCGGGTTTCGGCTAGTGCTA,10.5
TTTTTTTTCATCATTGCCTAGTGCTAG,1.31
TTAGCTATCCTTCTCCTTTAGTGCTAG,0.539
TTTGCTTTCTTTTATGCTCTGTGCTAG,1.28
GACGATTTCAGGTTTCGAGACGTGCTA,2.25
GTCGGACTGGGTTTCGGGACGTGCTAG,3.58

# Block 5 — technique: protein-binding microarray; molecule type: double-stranded DNA, one strand shown; matrix: in vitro; concentration: 0.8 µM; setting: whole 60-bp probe, no competitor; reading: higher = stronger binding; shared flanks, not repeated: … GTCTTGATTCGCTTGACGCTGCTG
# Target: Centromere-binding protein 1, full length, N-terminal tag (CBF1, Saccharomyces cerevisiae, UniProt P17106, residues 1-351)
# Sequence of UniProt P17106 (whole entry, looked up): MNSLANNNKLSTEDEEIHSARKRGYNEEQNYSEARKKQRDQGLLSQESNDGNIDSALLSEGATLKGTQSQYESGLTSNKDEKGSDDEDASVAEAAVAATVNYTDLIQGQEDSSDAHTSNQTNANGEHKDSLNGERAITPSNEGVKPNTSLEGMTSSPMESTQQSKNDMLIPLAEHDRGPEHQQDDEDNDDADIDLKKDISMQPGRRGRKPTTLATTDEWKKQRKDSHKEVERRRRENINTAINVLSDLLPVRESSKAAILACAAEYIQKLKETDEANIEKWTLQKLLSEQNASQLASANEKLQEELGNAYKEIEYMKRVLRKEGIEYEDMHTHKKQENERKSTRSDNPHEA
Sequence,fluorescence intensity
CTAATCCTGAGCCATCACCCACCCCACCCGTTGTTC,528 a.u.
CCTAACTACTATACACACGTGAGATAGCTTCGTACA,2770 a.u.
CTACAATACCACCATGACGTCATTAACGTATAATTC,527 a.u.
CCTAACTACTATAGACACGCGCAATAGCTTCGTACA,589 a.u.
GAAATCTTCATAGTGATCATGAAGTTGTGGGAATAG,566 a.u.
CTAGTTTCGCGGCGTTACACGTGAGTTCATATTTTC,4210 a.u.
CTAAAGTGCCGCTTACTCGTGAGAATATCAACCTTC,562 a.u.
CCTAACTACTATATATTCGTGATATAGCTTCGTACA,560 a.u.
CTAACGAGGTCGGGTAACGTGTTTGGTGTACTGTTC,638 a.u.
CTAATACGACTTGAACATCAGAACGGCGATTTTTTC,560 a.u.
GAAACTGCAATAATGCACATGTATCTTTTCAGTTAG,639 a.u.
CCTAACTACTATACACGTGCAAAATAGCTTCGTACA,6300 a.u.
CCTAACTACTATACCCACGATGGATAGCTTCGTACA,488 a.u.
GAATTCCTTAATCATTATGTCACCTTCCTATGCTAG,529 a.u.
TGTACGAAGCTATATCACATGTGTATAGTAGTTAGG,1960 a.u.
CTAGGTCTCTCTCACCTCGTGATGTTACGAACGTTC,1530 a.u.
CTATCATGAGAAGCGCACATGTCGTGATATCAATTC,1560 a.u.
TGTACGAAGCTATACCACGCGCTTATAGTAGTTAGG,581 a.u.
GAAGCCCTAGTCAATGGCATCATGCGGGAACGTTAG,531 a.u.
CTATGCAATTAAGTGCACGAAAAATTTCTTTTATTC,521 a.u.
GAACAGGGAGTTTATCATCAGAATGATTAGTGTTAG,523 a.u.

# Block 6 — technique: universal PBM; molecule type: double-stranded DNA, one strand shown; matrix: in vitro; concentration: 600 nM; reading: higher = stronger binding
# Target: Sal-like protein 4, full length isoform A (SALL4, Homo sapiens, UniProt Q9UJQ4, residues 1-1053)
# Sequence of UniProt Q9UJQ4 (whole entry, looked up): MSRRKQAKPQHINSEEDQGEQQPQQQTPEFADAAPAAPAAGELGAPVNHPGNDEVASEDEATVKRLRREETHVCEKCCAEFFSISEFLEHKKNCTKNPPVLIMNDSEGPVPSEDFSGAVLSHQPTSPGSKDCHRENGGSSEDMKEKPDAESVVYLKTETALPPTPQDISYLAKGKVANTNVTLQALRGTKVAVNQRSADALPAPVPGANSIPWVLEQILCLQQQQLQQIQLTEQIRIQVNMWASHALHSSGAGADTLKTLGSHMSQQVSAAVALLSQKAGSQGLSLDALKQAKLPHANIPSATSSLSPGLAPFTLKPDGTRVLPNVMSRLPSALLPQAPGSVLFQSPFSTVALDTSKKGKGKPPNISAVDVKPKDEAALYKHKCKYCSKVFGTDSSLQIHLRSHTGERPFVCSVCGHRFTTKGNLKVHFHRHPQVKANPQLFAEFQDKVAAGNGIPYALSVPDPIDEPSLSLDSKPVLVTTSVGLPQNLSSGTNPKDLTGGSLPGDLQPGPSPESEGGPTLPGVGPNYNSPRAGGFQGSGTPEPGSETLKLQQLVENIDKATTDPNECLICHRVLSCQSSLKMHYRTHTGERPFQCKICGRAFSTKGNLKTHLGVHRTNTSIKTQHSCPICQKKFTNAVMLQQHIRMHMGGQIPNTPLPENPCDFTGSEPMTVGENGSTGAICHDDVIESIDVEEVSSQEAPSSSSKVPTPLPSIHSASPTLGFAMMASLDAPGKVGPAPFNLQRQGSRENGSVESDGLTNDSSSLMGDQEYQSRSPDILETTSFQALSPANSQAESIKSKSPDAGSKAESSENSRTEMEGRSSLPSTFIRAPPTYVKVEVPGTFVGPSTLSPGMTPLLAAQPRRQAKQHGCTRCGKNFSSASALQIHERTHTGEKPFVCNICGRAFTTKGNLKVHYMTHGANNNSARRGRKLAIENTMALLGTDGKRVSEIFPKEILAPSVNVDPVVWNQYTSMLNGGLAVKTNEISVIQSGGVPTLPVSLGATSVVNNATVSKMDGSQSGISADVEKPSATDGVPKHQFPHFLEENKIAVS
# Setting: 8-mer, flanks averaged, mean of replicates
Sequence,E-score
CGGCACGC,-0.217
GGGTACAA,-0.0206
CACTGAGG,-0.152
GCAGAAGA,-0.0286
CTACTAAA,0.128
ATACTTAG,0.172
AAACCTCT,0.0508
ACTGGTTA,0.159
AGTCCTAT,0.134
GCATTAGC,-0.0533
ATAGCGAT,0.0119
CTGATCTC,-0.166
AACAGATT,0.117
GGATGGCC,-0.365
CTCGCATC,-0.177
ACTTGGTG,0.00717
CATGCCTC,-0.0799
ACTCGCCT,-0.175
ATGCCGCA,-0.137
ACTTGTCG,-0.00043

# Single results of other studies
Substance,target,assay,test system,setting,scale,quantity,value
"PhoQ, residues 284 288 289 292 302 303 TLSLKA","PhoP, residues 12 14 15 18 19 NMSSL (Escherichia coli, UniProt P23836)","Sort-seq, refers to: YFP reporter",E. coli,"PhoQ-PhoP variant library, added: 10 µM Mg2+","relative to: high Mg2+ state, higher = stronger signaling",fold induction,0.869

# Some of these lines once more (block 5):
Sequence,fluorescence intensity
CCTAACTACTATACACACGTGAGATAGCTTCGTACA,2770 a.u.
CTACAATACCACCATGACGTCATTAACGTATAATTC,527 a.u.
CCTAACTACTATAGACACGCGCAATAGCTTCGTACA,589 a.u.
GAAATCTTCATAGTGATCATGAAGTTGTGGGAATAG,566 a.u.
CTAGTTTCGCGGCGTTACACGTGAGTTCATATTTTC,4210 a.u.
CTAAAGTGCCGCTTACTCGTGAGAATATCAACCTTC,562 a.u.
CCTAACTACTATATATTCGTGATATAGCTTCGTACA,560 a.u.
CTAACGAGGTCGGGTAACGTGTTTGGTGTACTGTTC,638 a.u.
CTAATACGACTTGAACATCAGAACGGCGATTTTTTC,560 a.u.
GAAACTGCAATAATGCACATGTATCTTTTCAGTTAG,639 a.u.
CCTAACTACTATACACGTGCAAAATAGCTTCGTACA,6300 a.u.
CCTAACTACTATACCCACGATGGATAGCTTCGTACA,488 a.u.
GAATTCCTTAATCATTATGTCACCTTCCTATGCTAG,529 a.u.
TGTACGAAGCTATATCACATGTGTATAGTAGTTAGG,1960 a.u.
CTAGGTCTCTCTCACCTCGTGATGTTACGAACGTTC,1530 a.u.
CTATCATGAGAAGCGCACATGTCGTGATATCAATTC,1560 a.u.
TGTACGAAGCTATACCACGCGCTTATAGTAGTTAGG,581 a.u.
GAAGCCCTAGTCAATGGCATCATGCGGGAACGTTAG,531 a.u.
CTATGCAATTAAGTGCACGAAAAATTTCTTTTATTC,521 a.u.
